Measurements of several laboratories.
Lines come from different studies, so protocols differ. Numbers after ± are the reported error.
GLP1R: Glucagon-like peptide 1 receptor (GLP1R, Homo sapiens, UniProt P43220)
UGT1A1: UDP-glucuronosyltransferase 1A1 (UGT1A1, Homo sapiens, UniProt P22309)

CC[C@H](C)[C@H](NC(=O)[C@H](CC(N)=O)NC(=O)[C@H](CC(N)=O)NC(=O)[C@H](CCCNC(=N)N)NC(=O)[C@H](CC(N)=O)NC(=O)[C@H](CCCNC(=N)N)NC(=O)[C@H](CCCCN)NC(=O)[C@@H](NC(=O)[C@H](CC(N)=O)NC(=O)[C@H](CCSC)NC(=O)[C@H](CC(C)C)NC(=O)[C@H](Cc1c[nH]c2ccccc12)NC(=O)[C@@H]1CSCc2ccc(cc2)-c2ccc(cc2)CSC[C@@H](NC(=O)[C@H](CO)NC(=O)[C@H](CC(=O)O)NC(=O)[C@H](CC(C)C)NC(=O)[C@H](Cc2ccc(O)cc2)NC(=O)[C@H](CCCCN)NC(=O)[C@H](CO)NC(=O)[C@H](Cc2ccc(O)cc2)NC(=O)[C@H](CC(=O)O)NC(=O)[C@H](CO)NC(=O)[C@@H](NC(=O)[C@H](Cc2ccccc2)NC(=O)[C@@H](NC(=O)CNC(=O)[C@H](CCC(N)=O)NC(=O)[C@@H](CO)NC(=O)[C@@H](N)Cc2c[nH]cn2)[C@@H](C)O)[C@@H](C)O)C(=O)N[C@@H](CCCNC(=N)N)C(=O)N[C@@H](C)C(=O)N[C@@H](CCC(N)=O)C(=O)N[C@@H](CC(=O)O)C(=O)N[C@@H](Cc2ccccc2)C(=O)N[C@@H](C(C)C)C(=O)N1)[C@@H](C)O)C(=O)N[C@@H](C)C(N)=O — activity increase (GLP1R; CRE luciferase reporter, agonist; concentration not given; reference: linear counterpart): 2 fold
O=C(O)[C@H]1O[C@@H](O[C@@H]2c3cc4ccc5cccc6c7ccccc7c(c3C=C[C@H]2O)c4c56)[C@H](O)[C@@H](O)[C@@H]1O — kcat (UGT1A1; glucuronidation, substrate; UGT-expressing HEK293 homogenate; normalized to UGT expression): 0.22 ± 0.01 min⁻¹
CC(C)=CCCC(C)=CCc1cc(-c2coc3cc(OC4OC(C(=O)O)C(O)C(O)C4O)ccc3c2=O)ccc1O (stereo not shown) — Ki (UGT1A1; glucuronidation of cholic acid, substrate; recombinant enzyme; substrate inhibition constant): 53.7 ± 8.03 µM
CC(C)C[C@H](NC(=O)[C@H](Cc1ccc(O)cc1)NC(=O)[C@@H](CCCNC(=N)N)NC(=O)[C@@H](CO)NC(=O)[C@H](Cc1ccccc1)NC(=O)[C@H](CC1CCCCC1)NC(=O)[C@@H](N)CC(=O)O)C(=O)N[C@@H](Cc1c[nH]c2ccccc12)C(=O)N[C@@H](CO)C(=O)O — kon (Urokinase plasminogen activator surface receptor (Homo sapiens, UniProt Q03405); binding, SPR): 620000 M⁻¹ s⁻¹
FC(F)(F)c1cnc2[nH]cc(Cc3cccc(Cl)c3)c2c1 — inhibition (FGFR1 (Homo sapiens, UniProt P11362); enzyme activity, inhibitor; 1 µM): 56%
CC(=O)N1CCC[C@H]1C(=O)N[C@@H](CC(C)C)C(=O)N[C@@H](Cc1c[nH]cn1)C(=O)N[C@@H](CO)C(=O)N[C@H](C(N)=O)[C@@H](C)OP(=O)(O)O — binding (Plk2 polo-box domain, human; isothermal titration calorimetry; concentration not given): no binding
CCCC[C@H](NC(=O)[C@]1(C)CCCC=CCCC[C@](C)(NC(=O)[C@H](C)NC(=O)[C@H](CC(C)C)NC(=O)[C@H](Cc2c[nH]cn2)NC(=O)[C@H](CCCNC(=N)N)NC(=O)[C@H](C)NC(=O)[C@@H](NC(=O)[C@H](CC(N)=O)NC(=O)[C@H](CCCNC(=N)N)NC(=O)[C@@H](NC(=O)[C@@H](NC(=O)[C@H](CC(=O)O)NC(=O)[C@H](CCC(=O)O)NC(C)=O)[C@@H](C)CC)[C@@H](C)CC)[C@@H](C)CC)C(=O)N[C@@H](C(C)C)C(=O)NCC(=O)N[C@@H](CC(=O)O)C(=O)N1)C(=O)N[C@@H](CC(=O)O)C(=O)N[C@@H](CCCNC(=N)N)C(=O)N[C@@H](CO)C(=O)N[C@H](C(N)=O)[C@@H](C)CC — binding enhancement (Bcl-2 homologous antagonist/killer, part: residues 15–186 (BAK1, Homo sapiens, UniProt Q16611); analytical ultracentrifugation; concentration not given; reference: unstapled peptide): ~10 fold
O=C(c1ccc(C(=O)N2CCC(N3CCCCC3)CC2)cc1)N1CCC(N2CCCCC2)CC1 — fluorescence recovery after photobleaching (Lethal(3)malignant brain tumor-like protein 3, MBT domains (Homo sapiens, UniProt Q96JM7); FRAP; human cells; up to 0.1 mM): no effect
CN[C@@H](C)C(=O)N[C@H]1CCCCNC(=O)[C@H](Cc2ccccc2)NC(=O)[C@@H]2CCCN2C(=O)[C@@H](NC(=O)[C@H](C)NC)CCCCNC(=O)[C@H](Cc2ccccc2)NC(=O)[C@@H]2CCCN2C1=O — concentration for full caspase restoration (E3 ubiquitin-protein ligase XIAP, linker-BIR2-BIR3 (XIAP, Homo sapiens, UniProt P98170); caspase-3/7 activity, antagonist; MDA-MB-231 cell lysate; together with: 50 nM XIAP linker-BIR2-BIR3 protein): 500 nM
COc1cccc(C(=O)N[C@H]2[C@@H](O)[C@@H](CO)O[C@@H](S[C@@H]3O[C@H](CO)[C@H](O)[C@H](NC(=O)c4cccc(OC)c4)[C@H]3OS(=O)(=O)O)[C@@H]2O)c1 — –TΔS (Galectin-3 (LGALS3, Homo sapiens, UniProt P17931); ITC; Kd fixed from FP): 11.9 ± 0.5 kJ/mol
COc1ccc(-c2cc(C(F)(F)F)nc(S(=O)(=O)CCCC(=O)Nc3c(F)cc(F)cc3Br)n2)cc1OC — Emax (GLP1R; cAMP accumulation, positive allosteric modulator; HEK-293T overexpressing GLP1R; together with: EC20 GLP-1): 57 ± 31%
CC[C@H](C)[C@H](NC(=O)[C@H](Cc1ccccc1)NC(=O)[C@H](CCC(=O)O)NC(=O)[C@H](CCCCN)NC(=O)[C@H](C)NC(=O)[C@H](C)NC(=O)[C@H](CCC(N)=O)NC(=O)CNC(=O)[C@H](CCC(=O)O)NC(=O)[C@H](CC(C)C)NC(=O)[C@H](Cc1ccc(O)cc1)NC(=O)[C@H](CO)NC(=O)[C@H](CO)NC(=O)[C@@H](NC(=O)[C@H](CC(=O)O)NC(=O)[C@H](CO)NC(=O)[C@@H](NC(=O)[C@H](Cc1ccccc1)NC(=O)[C@@H](NC(=O)CNC(=O)[C@H](CCC(=O)O)NC(=O)CNC(=O)[C@@H](N)Cc1c[nH]cn1)[C@@H](C)O)[C@@H](C)O)C(C)C)C(=O)N[C@@H](C)C(=O)N[C@@H](Cc1c[nH]c2ccccc12)C(=O)N[C@@H](CC(C)C)C(=O)N[C@H](C(=O)N[C@@H](CCCCN)C(=O)NCC(=O)N[C@@H](CCCNC(=N)N)C(=O)N[C@@H](CSC1CC(=O)N(CCC(=O)NCCCCC(NC(=O)CCN2C(=O)CC(SC[C@H](NC(=O)[C@H](CCCNC(=N)N)NC(=O)CNC(=O)[C@H](CCCCN)NC(=O)[C@@H](NC(=O)[C@H](CC(C)C)NC(=O)[C@H](Cc3c[nH]c4ccccc34)NC(=O)[C@H](C)NC(=O)[C@@H](NC(=O)[C@H](Cc3ccccc3)NC(=O)[C@H](CCC(=O)O)NC(=O)[C@H](CCCCN)NC(=O)[C@H](C)NC(=O)[C@H](C)NC(=O)[C@H](CCC(N)=O)NC(=O)CNC(=O)[C@H](CCC(=O)O)NC(=O)[C@H](CC(C)C)NC(=O)[C@H](Cc3ccc(O)cc3)NC(=O)[C@H](CO)NC(=O)[C@H](CO)NC(=O)[C@@H](NC(=O)[C@H](CC(=O)O)NC(=O)[C@H](CO)NC(=O)[C@@H](NC(=O)[C@H](Cc3ccccc3)NC(=O)[C@@H](NC(=O)CNC(=O)[C@H](CCC(=O)O)NC(=O)CNC(=O)[C@@H](N)Cc3c[nH]cn3)[C@@H](C)O)[C@@H](C)O)C(C)C)[C@@H](C)CC)C(C)C)C(N)=O)C2=O)C(=O)NCCCCCCN)C1=O)C(N)=O)C(C)C (stereo partly shown) — potency ratio (GLP1R; cAMP, agonist; HEK293 expressing GLP1R; reference: GLP-1): 13.6 fold
CNc1ccccc1C(=O)O[C@H]1C[C@H](n2cnc3c(N)ncnc32)O[C@@H]1COP(=O)(O)OP(=O)(O)O — association rate constant (Unconventional myosin-Va (Gallus gallus, UniProt Q02440, D297C/G292C/I296C/S293C/V295G); stopped-flow FRET; 15 °C, together with: EDTA 4 mM): 4.14 ± 0.38 µM⁻¹ s⁻¹
COc1ccc2c(C=O)c(O)ccc2c1 — KRIT1 localisation (Krev interaction trapped protein 1, with HEG1 (KRIT1, Homo sapiens, UniProt O00522); KRIT1 binding to HEG1 tail, inhibitor; CHO; 75 µM): decreased
CCCN(CC(=O)N(CCC)CC(=O)N(CCC)CC(=O)N(CCC)CC(=O)N(CC(N)=O)Cc1cn(CCCNC(=O)CCCOc2cccc(-c3nc4ccc(-c5nc6ccc(N7CCN(C)CC7)cc6[nH]5)cc4[nH]3)c2)nn1)C(=O)CNCc1cn(CCCNC(=O)CCCOc2cccc(-c3nc4ccc(-c5nc6ccc(N7CCN(C)CC7)cc6[nH]5)cc4[nH]3)c2)nn1 — multivalent effect (MBNL1–r(CUG)109 complex; MBNL1 displacement; 0.65 pmol r(CUG)109; unit not given, together with: yeast tRNA 3.7 µM; reference: monomer 2 IC50 per module): 5
COc1cc(C2C(NC(=O)c3ccc(NC(=O)OC(C)(C)C)cc3)(C(=O)O)C(c3ccc(OC(=O)c4cccs4)c(OC)c3)C2(NC(=O)c2ccc(NC(=O)OC(C)(C)C)cc2)C(=O)O)ccc1OC(=O)c1cccs1 (stereo not shown) — cAMP production (GLP-1 receptor, N-terminal helix or ECD truncated, human; agonist; cell-based; concentration not given): inhibited
COc1ccc(/C=C/C(=O)NC[C@H]2O[C@H](OC)[C@@H](O)[C@@H](O)[C@@H]2O)cc1OC — −TΔS (lecB (Pseudomonas aeruginosa, UniProt Q9HYN5); binding, ITC; 25 °C): -1.18 ± 0.36 kcal/mol
CCCCCCCCCSc1nc2c([nH]1)c(=O)n(C)c(=S)n2C — remaining activity (Androgen receptor (AR, Homo sapiens, UniProt P10275); reporter gene, antagonist, PSA-luciferase; HeLa-A6; 10 µM, 24 h, together with: 5 nM dihydrotestosterone; reference: maximal activity): 123%
CSCC[C@H](NC(=O)[C@H](CO)NC(=O)[C@@H](NC(=O)[C@H](CCC(N)=O)NC(=O)[C@@H](CCCNC(=N)N)NC(=O)[C@@H](CCCNC(=N)N)NC(=O)[C@@H](CCCCN)NC(=O)[C@@H](CCCNC(=N)N)NC(C)=O)[C@@H](C)O)C(=O)N[C@H](C(=O)N[C@@H](CC(=O)O)C(=O)N[C@@H](Cc1ccccc1)C(=O)N[C@@H](Cc1ccc(O)cc1)C(=O)N[C@@H](Cc1c[nH]cn1)C(=O)N[C@@H](CO)C(=O)N[C@H](CCCCN)C(=O)N[C@H](CCCNC(=N)N)C(=O)N[C@H](CCCNC(=N)N)C(N)=O)[C@@H](C)O — binding enthalpy ΔH (PCNA (Homo sapiens, UniProt P12004); isothermal titration calorimetry; concentration not given, pH 7.4, 25 °C, 200 mM NaCl, together with: p21 peptide): -90 ± 4 kJ/mol

Excerpt of the above:
CC(C)=CCCC(C)=CCc1cc(-c2coc3cc(OC4OC(C(=O)O)C(O)C(O)C4O)ccc3c2=O)ccc1O (stereo not shown) — Ki (UGT1A1; glucuronidation of cholic acid, substrate; recombinant enzyme; substrate inhibition constant): 53.7 ± 8.03 µM
CNc1ccccc1C(=O)O[C@H]1C[C@H](n2cnc3c(N)ncnc32)O[C@@H]1COP(=O)(O)OP(=O)(O)O — association rate constant (Unconventional myosin-Va (Gallus gallus, UniProt Q02440, D297C/G292C/I296C/S293C/V295G); stopped-flow FRET; 15 °C, together with: EDTA 4 mM): 4.14 ± 0.38 µM⁻¹ s⁻¹
